Published values gathered from unrelated publications.
Each line is one published result; not all experiments were run side by side. “And” joins repeats or separate records; there may be more than shown. ± marks the error that the study gave.
Technique: steady-state kinetics
B1: STH1425 H227V (Symbiobacterium thermophilum, UniProt Q67PI3); chain MDKLRVAVVGYGNVGRYALEAVQAAPDMELVGVVRRKVLAATPPELTGVRVVTDISQLEGVQGALLCVPTRSVPEYAEAMLRRGIHTVDSYDIHGDLADLRRRLDPVAREHGAAAVISAGWDPGTDSIIRALLEFMAPKGITYTNFGPGMSMGHSVAVKAIPGVRDALSMTIPAGMGVHKRAVYVELEPGADFAEVERAIKTDPYFVRDETRVTQVESVSALMDVGVGVVMERKGVSGATHNQLFRFEMRINNPALTAQVMVAALRAAARQKPGCYTMIEIPVIDYLPGDREAWIRKLV
B2: enzyme E217L/L163H/N249W (Thermobifida fusca, UniProt Q47RK4); chain MTDVYILDAVRTPFGRYGGALSGIRPDDLAAHVLRALAERSPGLDPAAVDDVFFGDANGAGEDNRNVARMAALLAGWPTSVPGVTLNRLCGSGMESVIAANRAIAVGDASLAVAGGVESMSRAPWVLPKPAQGFPTGHETLYSTTLGWRMVNPAMPEQWTVSHGESTEQVAATYGISRAEQDAFALRSHERAARAWAEGVFDAEITQIPGAELERDLSIRETSAEKLAALKPAFRPDGTITAGNASPLWDGAAALLIGDAAAAERVGREPLARIVSRGVAAVDPDVFGIGPVQAAEIALRRAGIGWDDLSVVELNEAFAAQSLACLKLWPDLDPEIVNPNGGAIAIGHPLGASGARIVGTLAHELHRRGGGWGLAAICIGVGQGLAVVLHR
B3: Lxyl-p1-1 A72T (Lentinula edodes, UniProt G8GLN9); chain YFSGLGLGSERSIFRRDLNSTGDESNSTQWPAPLANGGKSWASAFKKAKSTVTEMTVEELANITSGVIGLCVGVTGAVTRLGIPELCLQDGPIGPRGVHGSSQFPAGLTVAATWDRTLMYARARGMGQEFHDQGVHIALAPVTGGPLGRTPLNGRGWEGTFADPYACGEASYQSVKGLTDAGVATVSKHWIAYEQETSRNLYIEFDGVSQADIQLPISSNVDDLTMHELYMWSFAEAVRAGTNHIMCSYNRINNTHSCNNAKGLNQLLKTELNFQGGVVSDWGGQWDSVLSAENGLDVGMPGEGFLGELGDFWGTTLADLINNGTVSEDLVRDKVVRLLTGYYYLGQDINPPPPFVYNTIGAPTLNATSGYRNVRKPGTAELIKEIGSASVTLLKNTGSLPLKHPQRIAVLGNDATYNVLGPNACGLANSACDIDNLNGTLTTGGGSGSALSPYTITPLEALQKRAIEDNAEIAAVVANSNTTTGAEDAIAALLPDADVTFVFLNRYSEEGADAPDFSLGGDGDNLMDLAVTYSSNVVVVIHTTGVVDIEKWADNPNVTAILVAYLPGQEAGNSLVPVLYGDVAPSGKLPWTWGKSIDDYVPNGVVYTDAYSPQSNFTEGVFIDYRWFDKMGITPRYEFGFGLSYTTFTYSNLIVDHGRWAKDYSSVMETAEPFAEWDGTNSLYDVIFTVFATITNTGNLTGSEVAQLYISIPGDNQPVRQLRGFDKIKDLPVGDSAVVTFPIRRKDVSSWSVVDQLWYVPNGDFLISVGGSSRDLPLNTTWTP
B4: protein N172D (Rhodopseudomonas palustris, UniProt Q6N3R9); chain MSNVRVLATDLAFPEGPVVMPDGSVVLVEIRAQQLTRVWPDGRKEVVAKVPGGPNGAALGPDGKMYICNNGGFGWFPSRGTMMPGAPAPHEYIGGSIQRVDLQSGEVETLFDKCGEHPLKGPNDLVFDKHGGLWFTDLGKRRARDMDVGAAYYIKPGMTEITEQVFGTLPLDGIGLSPDEATMYAAETPTGRLWAFDLSGPGEVKPRDVIYRGEKGKPICGLGGYQMFDSLAVEASGNVCVATLVSGCISVIAPDGTLVEQVPTGDRVTTNIAFGGPDLKTAYITLSGKGELIAMDWSRPGLPLNFLNK
B5: enzyme (Delftia acidovorans, UniProt A9BQX8); chain MVADSRLPNFRALTPAQRRDFLADACGLSDAERALLAAPGALPLALADGMIENVFGSFELPLGVAGNFRVNGRDVLVPMAVEEPSVVAAASYMAKLAREDGGFQTSSTLPLMRAQVQVLGVTDPHGARLAVLQARAQIIERANSRDKVLIGLGGGCKDIEVHVFPDTPRGPMLVVHLIVDVRDAMGANTVNTMAESVAPLVEKITGGSVRLRILSNLADLRLARARVRLTPQTLATQDRSGEEIIEGVLDAYTFAAIDPYRAATHNKGIMNGIDPVIVATGNDWRAVEAGAHAYASRSGSYTSLTRWEKDAGGALVGSIELPMPVGLVGGATKTHPLARLALKIMDLQSAQQLGEIAAAVGLAQNLGALRALATEGIQRGHMALHARNIALVAGATGDEVDAVARQLAAEHDVRTDRALEVLAALRARA
B6: enzyme W1065M (Limosilactobacillus reuteri, UniProt Q5SBN3); chain INGQQYYIDPTTGQPRKNFLLQNGNDWIYFDKDTGAGTNALKLQFDKGTISADEQYRRGNEAYSYDDKSIENVNGYLTADTWYRPKQILKDGTTWTDSKETDMRPILMVWWPNTVTQAYYLNYMKQYGNLLPASLPSFSTDADSAELNHYSELVQQNIEKRISETGSTDWLRTLMHEFVTKNSMWNKDSENVDYGGLQLQGGFLKYVNSDLTKYANSDWRLMNRTATNIDGKNYGGAEFLLANDIDNSNPVVQAEELNWLYYLMNFGTITGNNPEANFDGIRVDAVDNVDVDLLSIARDYFNAAYNMEQSDASANKHINILEDMGWDDPAYVNKIGNPQLTMDDRLRNAIMDTLSGAPDKNQALNKLITQSLVNRANDNTENAVIPSYNFVRAHDSNAQDQIRQAIQAATGKPYGEFNLDDEKKGMEAYINDQNSTNKKWNLYNMPSAYTILLTNKDSVPRVYYGDLYQDGGQYMEHKTRYFDTITNLLKTRVKYVAGGQTMSVDKNGILTNVRFGKGAMNATDTGTDETRTEGIGVVISNNTNLKLNDGESVVLHMGAAHKNQKYRAVILTTEDGVKNYTNDTDAPVAYTDANGDLHFTNTNLDGQQYTAVRGYANPDVTGYLAVWVPAGAADDQDARTAPSDEAHTTKTAYRSNAALDSNVIYEGFSNFIYWPTTESERTNVRIAQNADLFKSWGITTFELAPQYNSSKDGTFLDSIIDNGYAFTDRYDLGMSTPNKYGSDEDLRNALQALHKAGLQAIADWVPDQIYNLPGKEAVTVTRSDDHGTTWEVSPIKNVVYITNTIGGGEYQKKYGGEFLDTLQKEYPQLFSQVYPVTQTTIDPSVKIKEWSAKYFNGTNILHRGAGYVLRSNDGKYYNLGTSTQQFLPSQLSVQDNEGYGFVKEGNNYHYYDENKQMVKDAFIQDSVGNWYYFDKNGNMVANQSPVEISSNGASGTYLFLNNGTSFRSGLVKTDAGTYYYDGDGRMVRNQTVSDGAMTYVLDENGKLVSESFDSSATEAHPLKPGDLNGQK
B7: enzyme L163H/N249W (Thermobifida fusca, UniProt Q47RK4); chain MTDVYILDAVRTPFGRYGGALSGIRPDDLAAHVLRALAERSPGLDPAAVDDVFFGDANGAGEDNRNVARMAALLAGWPTSVPGVTLNRLCGSGMESVIAANRAIAVGDASLAVAGGVESMSRAPWVLPKPAQGFPTGHETLYSTTLGWRMVNPAMPEQWTVSHGESTEQVAATYGISRAEQDAFALRSHERAARAWAEGVFDAEITQIPGAELERDESIRETSAEKLAALKPAFRPDGTITAGNASPLWDGAAALLIGDAAAAERVGREPLARIVSRGVAAVDPDVFGIGPVQAAEIALRRAGIGWDDLSVVELNEAFAAQSLACLKLWPDLDPEIVNPNGGAIAIGHPLGASGARIVGTLAHELHRRGGGWGLAAICIGVGQGLAVVLHR
B8: blaNDM-1 (Klebsiella pneumoniae, UniProt C7C422); chain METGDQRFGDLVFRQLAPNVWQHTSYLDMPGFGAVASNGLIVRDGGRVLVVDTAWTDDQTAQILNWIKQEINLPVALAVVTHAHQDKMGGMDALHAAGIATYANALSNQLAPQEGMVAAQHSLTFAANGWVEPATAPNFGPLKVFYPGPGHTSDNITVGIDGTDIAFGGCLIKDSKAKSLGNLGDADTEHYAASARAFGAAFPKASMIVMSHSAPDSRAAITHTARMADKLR
Sequence of UniProt P0A0C1 (whole entry, looked up): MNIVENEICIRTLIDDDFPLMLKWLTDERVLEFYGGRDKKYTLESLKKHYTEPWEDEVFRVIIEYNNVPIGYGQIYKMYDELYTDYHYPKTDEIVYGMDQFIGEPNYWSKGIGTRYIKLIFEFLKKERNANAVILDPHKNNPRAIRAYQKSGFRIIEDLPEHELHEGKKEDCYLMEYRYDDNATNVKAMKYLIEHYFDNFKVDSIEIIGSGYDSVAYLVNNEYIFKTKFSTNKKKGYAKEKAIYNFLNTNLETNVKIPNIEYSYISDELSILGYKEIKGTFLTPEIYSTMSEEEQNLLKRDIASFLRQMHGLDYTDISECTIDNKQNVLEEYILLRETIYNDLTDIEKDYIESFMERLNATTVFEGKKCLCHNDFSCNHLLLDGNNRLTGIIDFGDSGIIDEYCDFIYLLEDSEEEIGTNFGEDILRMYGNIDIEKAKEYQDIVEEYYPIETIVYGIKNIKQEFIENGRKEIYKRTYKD
Sequence of UniProt Q6XEC0 (whole entry, looked up): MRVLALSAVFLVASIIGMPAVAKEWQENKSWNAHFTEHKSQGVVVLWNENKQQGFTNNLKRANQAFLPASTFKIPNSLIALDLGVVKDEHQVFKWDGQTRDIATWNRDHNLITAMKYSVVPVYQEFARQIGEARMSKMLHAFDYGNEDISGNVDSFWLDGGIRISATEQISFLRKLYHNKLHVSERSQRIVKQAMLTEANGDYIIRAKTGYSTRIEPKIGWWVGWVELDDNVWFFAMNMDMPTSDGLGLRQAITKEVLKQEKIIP
Sequence of UniProt Q9HX72 (whole entry, looked up): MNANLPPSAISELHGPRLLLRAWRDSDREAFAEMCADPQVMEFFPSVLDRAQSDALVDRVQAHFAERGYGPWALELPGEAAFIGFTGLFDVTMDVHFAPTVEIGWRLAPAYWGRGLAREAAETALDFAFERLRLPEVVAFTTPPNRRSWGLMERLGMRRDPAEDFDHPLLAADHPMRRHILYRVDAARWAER

| Substance | substrate | conditions | kcat/Km |
| --- | --- | --- | --- |
| PA3944 (Pseudomonas aeruginosa, UniProt Q9HX72) | NCC[C@H](N)C(=O)O | pH 8, 37 °C | 39.1 M⁻¹ s⁻¹ |
| B1 (STH1425 H227V) | O=C(O)C(=O)Cc1ccccc1 | pH 9, 30 °C, reductive amination, added: NH4Cl 200 mM, NADPH 0.5 mM | 91 ± 3 M⁻¹ s⁻¹ |
| aacA-aphD (Staphylococcus aureus, UniProt P0A0C1) | CN[C@@H]1[C@@H](O)[C@@H](O[C@@H]2[C@@H](O)[C@H](O[C@H]3OC(CNCCO)=CC[C@H]3N)[C@@H](N)C[C@H]2NC(=O)[C@@H](O)CCN)OC[C@]1(C)O | pH 7.5, 25 °C | 1800 M⁻¹ s⁻¹ |
| B2 (enzyme E217L/L163H/N249W) | CC(C)(COP(=O)(O)OP(=O)(O)OC[C@H]1O[C@@H](n2cnc3c(N)ncnc32)[C@H](O)[C@@H]1OP(=O)(O)O)[C@@H](O)C(=O)NCCC(=O)NCCSC(=O)CCC(=O)O | pH 7.4, 37 °C | 16.7 M⁻¹ s⁻¹ |
| OXA-48 (Klebsiella pneumoniae, UniProt Q6XEC0) | O=C(Cc1cccs1)N[C@@H]1C(=O)N2C(C(=O)O)=C(/C=C/c3ccc([N+](=O)[O-])cc3[N+](=O)[O-])CS[C@H]12 | pH 7.2, 30 °C | 4e+06 M⁻¹ s⁻¹ |
| B3 (Lxyl-p1-1 A72T) | [H][C@]12[C@H](OC(=O)c3ccccc3)[C@]3(O)C[C@H](OC(=O)[C@H](O)[C@@H](NC(=O)c4ccccc4)c4ccccc4)C(C)=C([C@@H](O)C(=O)[C@]1(C)[C@@H](O[C@@H]1OC[C@@H](O)[C@H](O)[C@H]1O)C[C@@]1([H])OC[C@@]21OC(C)=O)C3(C)C |  | 4540 ± 40 M⁻¹ s⁻¹ |
| B4 (protein N172D) | O=C1CCc2ccccc2O1 | pH 8, NaCl 150 mM, no saturation, added: CaCl2 1 mM | 660 M⁻¹ s⁻¹ |
| B5 (enzyme) | NC(=O)C1=CN([C@@H]2O[C@H](COP(=O)(O)OP(=O)(O)OC[C@H]3O[C@@H](n4cnc5c(N)ncnc54)[C@H](O)[C@@H]3O)[C@@H](O)[C@H]2O)C=CC1 | cofactor varied | 582000 M⁻¹ s⁻¹ |
| B6 (enzyme W1065M) | OC[C@H]1O[C@@](CO)(O[C@H]2O[C@H](CO)[C@@H](O)[C@H](O)[C@H]2O)[C@@H](O)[C@@H]1O | pH 4.7, 37 °C | 1200 M⁻¹ s⁻¹ |
| B7 (enzyme L163H/N249W) | CC(C)(COP(=O)(O)OP(=O)(O)OC[C@H]1O[C@@H](n2cnc3c(N)ncnc32)[C@H](O)[C@@H]1OP(=O)(O)O)[C@@H](O)C(=O)NCCC(=O)NCCSC(=O)CCC(=O)O | pH 7.4, 37 °C | 5.67 M⁻¹ s⁻¹ |
| B8 (blaNDM-1) | CC(C)(O/N=C(\C(=O)N[C@@H]1C(=O)N2C(C(=O)[O-])=C(C[N+]3(CCNC(=O)c4ccc(O)c(O)c4Cl)CCCC3)CS[C@H]12)c1csc(N)n1)C(=O)O | pH 7.5, 30 °C | 191000 M⁻¹ s⁻¹ and 100000 M⁻¹ s⁻¹ |

Some of these lines once more:
| Substance | substrate | conditions | kcat/Km |
| --- | --- | --- | --- |
| PA3944 (Pseudomonas aeruginosa, UniProt Q9HX72) | NCC[C@H](N)C(=O)O | pH 8, 37 °C | 39.1 M⁻¹ s⁻¹ |
